# Results from different studies.
# Protocols differ between the studies behind these lines. ± marks the error that the study gave.
# rep main protease: Replicase polyprotein 1ab, main protease (rep, Severe acute respiratory syndrome coronavirus 2, UniProt P0DTD1)
SMILES,tested on,assay,system,setting,how to read,quantity,result
CCCN(CCC)CCCNC(=O)C1CCCN(Cc2nc(-c3ccc(Cl)cc3)oc2C)C1 (centres unmarked),SARS-CoV-2,cytopathic effect,USA_WA1/2020,,,AC50,12.6 µM
CC[C@H](C)[C@H](NC(=O)[C@H](CC(C)C)NC(=O)[C@H](Cc1c[nH]c2ccccc12)NC(=O)[C@H](CCC(N)=O)NC(=O)[C@@H](NC(=O)[C@H](Cc1ccccc1)NC(=O)[C@H](C)NC(=O)[C@H](CCCCNC(=O)COCCOCCNC(=O)COCCOCCNC(=O)CC[C@H](NC(=O)CCCCCCCCCCCCCCCCCCC(=O)O)C(=O)O)NC(=O)[C@H](CCC(N)=O)NC(=O)[C@H](C)NC(=O)[C@@H](NC(=O)[C@H](CCCCN)NC(=O)[C@H](CC(=O)O)NC(=O)[C@H](CC(C)C)NC(=O)C(C)(C)NC(=O)[C@@H](NC(=O)[C@H](CO)NC(=O)[C@H](Cc1ccc(O)cc1)NC(=O)[C@H](CC(=O)O)NC(=O)[C@H](CO)NC(=O)[C@@H](NC(=O)[C@H](Cc1ccccc1)NC(=O)[C@@H](NC(=O)CNC(=O)[C@H](CCC(=O)O)NC(=O)C(C)(C)NC(=O)[C@@H](N)Cc1ccc(O)cc1)[C@@H](C)O)[C@@H](C)O)[C@@H](C)CC)[C@@H](C)CC)C(C)C)C(=O)N[C@@H](C)C(=O)NCC(=O)NCC(=O)N1CCC[C@H]1C(=O)N[C@@H](CO)C(=O)N[C@@H](CO)C(=O)NCC(=O)N[C@@H](C)C(=O)N1CCC[C@H]1C(=O)N1CCC[C@H]1C(=O)N1CCC[C@H]1C(=O)N[C@@H](CO)C(N)=O,,,"patients with type 2 diabetes, serum","0.5 mg, baseline, proof of concept",,serum ALT,29.8 ± 19.9 U/L
N#Cc1ncccn1,rep main protease,"reporter gene (mKate2), inhibitor",,20 µM,,inhibition,-0.556%
CCCC(C(=O)OCCN(CC)CC)(c1ccccc1)c1ccccc1,SARS-CoV-2,"viral replication, high-content imaging screen",,cell-based,,EC50,> 100 µM
CN(C)CCNC(=O)c1ccc2c(c1)C1(CCN(CC3CC3)C1)CN2Cc1ccccc1 (centres unmarked),SARS-CoV-2,cytopathic effect,USA_WA1/2020,"round 2, 5-point",,efficacy,96.9%
O=C1CC2(CCCC2)CC(=O)N1CCCCN1CCN(c2nsc3ccccc23)CC1,SARS-CoV-2,"viral replication, GFP plate reader screen",,cell-based,,EC50,> 100 µM
Cn1cnc(Cn2c(=O)[nH]/c(=N\c3cc4cn(C)nc4cc3Cl)n(Cc3cc(F)c(F)cc3F)c2=O)n1,,,"human, normal renal function","oral, 375 mg, single dose, median",,Tmax,4.25 h
O=C(O[C@@H]1Cc2c(O)cc(O)cc2O[C@@H]1c1cc(O)c(O)c(O)c1)c1cc(O)c(O)c(O)c1,SARS-CoV-2,viral replication,Vero E6,1.562 µM,,CPE inhibition,0%
CC(C)(C)[C@H](NC(=O)C(F)(F)F)C(=O)N1C[C@H]2[C@@H]([C@H]1C(=O)N[C@H](C#N)C[C@@H]1CCNC1=O)C2(C)C,SARS-CoV-2,viral replication,Vero E6,0.1111 µM,,inhibition,113%
O=C(/C=C/c1ccc(O)c(O)c1/C=C/c1ccc(O)c(O)c1)O[C@H](Cc1ccc(O)c(O)c1)C(=O)O,SARS-CoV-2,viral replication,Vero E6,6.25 µM,relative to: mean of replicates,CPE inhibition,0%
CC(C)(C)NCc1ccc(Nc2ccnc3cc(Cl)ccc23)cc1O,SARS-CoV-2,cytopathic effect,USA_WA1/2020,"retest, 8-point, duplicates",,efficacy,54.9%
Nc1ncnc2c([C@@H]3N[C@H](CO)[C@@H](O)[C@H]3O)c[nH]c12,Marburg virus,"viral replication, antibody staining","HeLa, Musoke","12.5 µM, 24 h",,infected cells,5.6%
COc1ccc2cc1Oc1ccc(cc1)C[C@H]1c3cc(c(OC)cc3CCN1C)Oc1c(OC)c(OC)cc3c1[C@H](C2)N(C)CC3,SARS-CoV-2,"viral replication, GFP plate reader screen",BetaCov/Belgium/GHB-03021/2020,cell-based,,EC50,3.98 µM
COc1ccc2c(Sc3ccccc3)c(C(=O)NCCCN3CCCCC3)[nH]c2c1,SARS-CoV-2,"cytopathic effect, cell-based CPE",USA_WA1/2020,"round 2, 5-point dilution",,AC50,12.6 µM
COc1ccc(C[C@@H]2c3cc(Oc4cc(C[C@@H]5c6cc(O)c(OC)cc6CCN5C)ccc4O)c(OC)cc3CCN2C)cc1,SARS-CoV-2,viral replication,Vero E6,1.562 µM,relative to: mean of replicates,CPE inhibition,0%
C#C[C@]1(O)CC[C@H]2[C@@H]3CCC4=CCCC[C@@H]4[C@H]3CC[C@@]21C,SARS-CoV-2,"viral replication, GFP plate reader screen",,cell-based,,EC50,> 50.1 µM
CCc1ccc(Sc2cc(C(=O)NCCCN3CCCC(C)C3)c3ccccc3n2)cc1 (centres unmarked),SARS-CoV-2,cytopathic effect,USA_WA1/2020,first round 5-point,,maximum response,91.6%
CC[C@@H](C(=O)[C@@H](C)[C@@H](O)[C@H](C)CCc1ccc(C)c(O)c1C(=O)O)[C@H]1O[C@](CC)([C@H]2CC[C@](O)(CC)[C@H](C)O2)C[C@@H]1C,SARS-CoV-2,"viral replication, high-content imaging screen",,cell-based,,EC50,1.07 µM
CC(C)=CCc1c(O)ccc(C(=O)/C=C/c2ccc(O)cc2)c1O,SARS-CoV-2,viral replication,Vero E6,6.25 µM,,CPE inhibition,0%
CCCC[C@@H](C=O)NC(=O)[C@H](CC(C)C)NC(=O)OCc1ccccc1,rep main protease,"reporter gene (Gaussia luciferase), inhibitor",,20 µM,,inhibition,4.19%

# Repeated from above:
SMILES,tested on,assay,system,setting,how to read,quantity,result
CC(C)(C)NCc1ccc(Nc2ccnc3cc(Cl)ccc23)cc1O,SARS-CoV-2,cytopathic effect,USA_WA1/2020,"retest, 8-point, duplicates",,efficacy,54.9%
Nc1ncnc2c([C@@H]3N[C@H](CO)[C@@H](O)[C@H]3O)c[nH]c12,Marburg virus,"viral replication, antibody staining","HeLa, Musoke","12.5 µM, 24 h",,infected cells,5.6%
COc1ccc2cc1Oc1ccc(cc1)C[C@H]1c3cc(c(OC)cc3CCN1C)Oc1c(OC)c(OC)cc3c1[C@H](C2)N(C)CC3,SARS-CoV-2,"viral replication, GFP plate reader screen",BetaCov/Belgium/GHB-03021/2020,cell-based,,EC50,3.98 µM
